Measured values of several laboratories.
Numbered parts are unrelated; each lists some results of a single study. Positions count from the first letter of the parent shown.

Set 1 — method: EMSA with sequencing; molecule type: double-stranded DNA, one strand shown; medium: in vitro; concentration: 10 and 20 nM; baseline: negative control set to 0; direction: higher = stronger binding
Target: Hepatocyte nuclear factor 3-alpha (Foxa1, Mus musculus, UniProt P35582, residues 1-468, full length assumed)
Notes: whole designed probe, mean of two concentrations, ends assumed
Construct (chain): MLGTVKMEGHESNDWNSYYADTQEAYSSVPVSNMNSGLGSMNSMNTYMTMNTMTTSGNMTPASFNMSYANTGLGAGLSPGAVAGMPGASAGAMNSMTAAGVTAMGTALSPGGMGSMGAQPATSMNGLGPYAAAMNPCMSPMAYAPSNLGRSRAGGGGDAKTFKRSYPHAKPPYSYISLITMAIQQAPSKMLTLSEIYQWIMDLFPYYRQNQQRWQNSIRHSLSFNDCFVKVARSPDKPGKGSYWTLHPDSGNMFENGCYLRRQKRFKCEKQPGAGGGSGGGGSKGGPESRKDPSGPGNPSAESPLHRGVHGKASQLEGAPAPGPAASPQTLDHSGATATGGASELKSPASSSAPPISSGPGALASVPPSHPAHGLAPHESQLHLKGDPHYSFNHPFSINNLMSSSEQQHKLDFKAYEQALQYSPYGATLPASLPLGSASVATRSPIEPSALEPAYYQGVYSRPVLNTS
Sequence | normalised bound fraction [ratio]
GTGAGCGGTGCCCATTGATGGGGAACATCTTCCCCCTCTTCCTTGCCCCACCAGCTCACCTACGGGGGTTATTTGCAGATAGGAAAATAAATAAAGCCGGCATTCGTTAACCCTCTTCTGGCGCAAACTGCTGTTTGCTCTGCATGAATCATGGTCCTTACGCGAGGCGTGGCTCCGGGAGAGCAAAGCACCGTGTCAGGCGCATGATCCGGGGTGGCCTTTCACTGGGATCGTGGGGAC | 0.352
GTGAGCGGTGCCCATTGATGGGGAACAGGCCTTATCACTGTGCAATCTCTTCCTCTTTCCCCAGTGCTGGTTCTCACACAATTGGTAATCAGTGTAAACTTCCTCTGACAATTTACTGAGCAATCTTTTACCATACAACTGCCCTATGTAGGGCTCTGTGCTAAGGCCCATGGGGAACCCAAGCCTGGTCTCCACCTTGGGGCATCTCGAGTCTGGTAGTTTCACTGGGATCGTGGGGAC | -0.011
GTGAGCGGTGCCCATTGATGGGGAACATTATTTATTGTAAAAGATGTCAGGAACTATAAAATACTTCAAACAGGTTTGTGAAAGGTCTTGACTTCAAGAAATATGACGAGTAAATGCATGTTTACATATTTTTTCTCCCCAAAAGCTATCAAAAGGAACCAAAAGTGAGAAAAAGATAAAAAAGAAAAAGAAAACATTAACTTTGAGCTTAAGAAATTGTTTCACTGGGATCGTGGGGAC | 0.27
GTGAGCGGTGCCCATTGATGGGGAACGAATAGGATTTCTCAATATTCTGTAACACAGAAATTAATTTTTGTGGTCTTTTTGAATGTTACACATTCCTGTTTTTCAAAAAGAACTTACTTGTTTACTTTTACAGTATTCTTTCTGTTATAATTTAATTGTAAATACTCTTCAATTAAAAGCCTTTTTGATACGCCTCTGTAATTGTTATTTATAATAGTTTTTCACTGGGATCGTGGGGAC | 0.439
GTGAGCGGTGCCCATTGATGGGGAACATCTTCCCCCTCTTCCTTGCCCCACCAGCTCACCTACGGGGGTTATTTGCAGATAGGAAAATAAATAAAGCCGGCATTCGTTAACCCTCTTCTGGCGCAAACTGCTGTTTGCTCTGCATGAATCATGGTCCTTACGCGAGGCGTGGCTCCGGGAGAGCAAAGCACCGTGTCAGGCGCATGATCCGGGCTCGCCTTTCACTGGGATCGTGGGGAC | 0.349
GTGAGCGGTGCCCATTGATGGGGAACCAATTTCTTAAGCTCAAAGTTAATGTTTTCTTTTTCTTTTTTATCTTTTTCTCACTTTTGGTTCCTTTTGATAGCTTTTGGGGAGAAAAAATATGTAAACATGCATTTACTCGTCATATTTCTTGAAGTCAAGACCTTTCACAAACCTGTTTGAAGTATTTTATAGTTCCTGACATCTTTTACAATAAATAATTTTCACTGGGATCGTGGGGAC | 0.26

Set 2 — target: CCND3, cyclin fold, Cln2 fusion (human); method: yeast growth competition, sequencing; medium: yeast; notes: weak parent motif; baseline: not given; direction: higher = stronger binding
Starting sequence: WEE2 docking peptide (human); KELRQKLNFSYCE
Change | normalised enrichment score
KELAQKLNFSYCE [R4A] | -0.299
KELRQKLAFSYCE [N8A] | 0.219
KELRAKLNFSYCE [Q5A] | 0.0143
KELRQKLNFSYAE [C12A] | -0.212
KELRQKLNFAYCE [S10A] | 0.00712
KELRQKANFSYCE [L7A] | -0.0958

Set 3 — method: protein binding microarray; molecule type: double-stranded DNA, one strand shown; medium: in vitro; concentration: not given; baseline: not given; direction: higher = stronger binding
Target: Histone acetyltransferase KAT6A, winged helix 1, GST fusion (KAT6A, Homo sapiens, UniProt Q92794, residues 1-85)
Notes: 8-mer, flanks averaged, mean of 2 arrays, mostly near background
Construct (chain): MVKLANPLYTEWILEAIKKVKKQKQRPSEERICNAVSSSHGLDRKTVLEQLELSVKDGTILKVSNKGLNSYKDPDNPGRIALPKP
Sequence | E-score
ACCCGCGA | 0.307
AGGCCATC | -0.108
GCCTTTGA | -0.0602
CATCTCGA | -0.302
AATAGTAT | -0.164
GGCAATTA | 0.0771
GACGGATA | 0.264
ATTCAAAC | -0.207
GCGTGAAA | 0.0414
CGTGGGAA | 0.032
ACCATTAG | -0.0624
CTGACATC | -0.107
CCGGTTTA | 0.194
ACGTCCAT | -0.203
CGGGTGGA | 0.239
ACATTGAA | -0.107
AACAGATT | -0.25
ACAGAGTC | -0.0204
CGGATGCC | 0.0838
GAAGACTC | -0.0777
ATTACTGA | -0.0702

Set 4 — method: DHFR PCA, deep sequencing; medium: yeast; with: (+)-ABA 2500 µM; baseline: wild-type fitted maximum; direction: higher = stronger binding
Target: ABI1, truncated, D143A, DHFR fusion (Arabidopsis thaliana)
Notes: methotrexate growth selection, single substitutions
Starting sequence: PYL1, truncated, DHFR fusion (Arabidopsis thaliana); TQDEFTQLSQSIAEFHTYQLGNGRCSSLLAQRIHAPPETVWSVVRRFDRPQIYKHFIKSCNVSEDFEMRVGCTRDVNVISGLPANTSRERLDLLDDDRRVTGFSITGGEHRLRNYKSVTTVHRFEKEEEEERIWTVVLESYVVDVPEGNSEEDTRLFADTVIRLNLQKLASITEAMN
Change | relative binding score
D3H | 87.7%
R46E | 94%
I105T | 87.4%
E152H | 93%
N85I | 97.6%
S117E | 57%
Q7V | 104%
L166R | 3.04%
A158E | -3.69%
I133T | 103%
D3A | 101%
E64H | 98%
R24A | 91.9%
S26C | 99.8%
Q51M | 105%
D96A | 87.3%
N77D | 93.2%
L164D | 57.8%

Set 5 — method: universal PBM; molecule type: double-stranded DNA, one strand shown; medium: in vitro; concentration: not given; direction: higher = stronger binding
Target: Sal-like protein 4, full length isoform B (SALL4, Homo sapiens, UniProt Q9UJQ4-2, residues 1-616)
Notes: 8-mer, flanks averaged, mean of replicates
Sequence | E-score
CAGGTCCC | -0.29
GGAGAACA | 0.0152
CGCATTCC | -0.269
AACGTAAT | 0.296
GTGGAAGA | 0.0684
CATCAGGC | -0.164
ATAAAGAG | 0.139
AATTGGCT | 0.171
TTCTTCAA | 0.126
ACGGTGGG | -0.171
CTGTCATC | -0.0873
CCAGCCCC | -0.133
GGGCGGAA | -0.186
GGAGCTCA | -0.102
CACTAAAA | 0.0464
AATTACCT | 0.266
ACGGCCAG | -0.222
AGCTGTTC | -0.152
TGACACAA | 0.169
TGGGAACA | -0.18

Set 6 — target: UBE2G2 UBC core domain (UniProt P60604); method: yeast two-hybrid; medium: yeast; notes: mostly zero background; baseline: not given; direction: higher = stronger interaction
B1: RNF182 RING domain (UniProt Q8N6D2); chain AESQASDELECKICYNRYNLKQRKPKVLECCHRVCAKCLYKIIDFGDSPQGVIVCPFCRFETCLPDDEV
B2: RNF186 RING domain (UniProt Q9NXI6); chain HSGSTECDLECLVCREPYSCPRLPKLLACQHAFCAICLKLLLCVQDNTWSITCPLCRKVTAVPGGLI
B3: MKRN3 RING domain (UniProt Q13064); chain FAVQRGMDKVCGICMEVVYEKANPNDRRFGILSNCNHSFCIRCIRRWRSARQFENRIVKSCPQCRVTSELVIPSE
B4: TRIM11 RING domain (UniProt Q96F44); chain LSTNLQEEATCAICLDYFTDPVMTDCGHNFCRECIRRCWGQPEGPYACPECRELSPQRNLRP
B5: ZMYND11 RING domain (UniProt Q15326); chain DEIDWETENHDWYCFECHLPGEVLICDLCFRVYHSKCLSDEFRLRDSSSPWQCPVCRSIKKKNTNKQEM
B6: RNF6 RING domain (UniProt Q9Y252); chain NSIDSELGKICSVCISDYVTGNKLRQLPCMHEFHIHCIDRWLSENCTCPICRQPVLGSNIAN
B7: MID2 RING domain (UniProt Q9UJV3); chain KMETLESELTCPICLELFEDPLLLPCAHSLCFSCAHRILVSSCSSGESIEPITAFQCPTCRYVISLNHRGL
B8: NFX1 RING domain (UniProt Q12986); chain IEQLTTEKYECMVCCELVRVTAPVWSCQSCYHVFHLNCIKKWARSPASQADGQSGWRCPACQNVSAHVPNTY
B9: MARCHF1 RING domain (UniProt Q8TCQ1); chain TAPRSQSRLSVCPSTQDICRICHCEGDEESPLITPCRCTGTLRFVHQSCLHQWIKSSDTRCCELCKYDFIMETKLKPLRKWE
Residues (chain): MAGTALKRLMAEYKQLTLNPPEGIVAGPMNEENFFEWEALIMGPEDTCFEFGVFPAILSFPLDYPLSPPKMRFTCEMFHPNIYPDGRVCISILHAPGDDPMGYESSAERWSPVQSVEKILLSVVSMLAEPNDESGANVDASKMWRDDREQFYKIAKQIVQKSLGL
Sequence | lacZ reporter activity
B1 (RNF182 RING domain) | 0
EIKEYKARLTCPCCNTRKKDAVLTKCFHVFCFECVRGRYEARQRKCPKCNAAFGAHDFHR (RNF40 RING domain (UniProt O75150)) | 0
B2 (RNF186 RING domain) | 17100
B3 (MKRN3 RING domain) | 0
B4 (TRIM11 RING domain) | 0
B5 (ZMYND11 RING domain) | 0
B6 (RNF6 RING domain) | 0
B7 (MID2 RING domain) | 0
B8 (NFX1 RING domain) | 0
B9 (MARCHF1 RING domain) | 0

For quick reference, copied from above (set 4):
Change | relative binding score
R46E | 94%
I105T | 87.4%
E152H | 93%
N85I | 97.6%
S117E | 57%
Q7V | 104%
L166R | 3.04%
A158E | -3.69%
I133T | 103%
D3A | 101%
